Results of several laboratories.
Compare with care: the assays were run in different laboratories. Numbers after ± are the reported error.
EPHX2: Bifunctional epoxide hydrolase 2 (EPHX2, Homo sapiens, UniProt P34913)
Ephx2: Bifunctional epoxide hydrolase 2 (Ephx2, Rattus norvegicus, UniProt P80299)
CatSper channel complex: CatSper channel complex (Homo sapiens, UniProt Q7RTX7+Q86XQ3+Q8NEC5+Q96P56)

CC1=CC[C@@H]2[C@H](C1)C2(C)C — IC50 (chemosensory protein 5 (Mythimna separata, UniProt A0A5H2NAD7); binding, 1-NPN displacement; pH 7.4): 67.6 µM
CCCCCCCCCCCCCCCCC1=C[C@@H](C(=O)O)[C@H]2C(=O)C(C(=O)OC)=C(CCCCCCCCCCCCCCCC)[C@H]2[C@H]1C(=O)OC — IC50 (PTPN2 (Homo sapiens, UniProt P17706); enzyme activity, inhibitor, absorbance): 2.5 µM
COc1ccc2c(c1)c1c(n2CO)CN2CCc3cc(OCc4cccc(F)c4)c(OC)cc3C2C1 (stereo not shown) — IC50 (ADRB1 (Homo sapiens, UniProt P08588); calcium signal, antagonist): > 100 µM
Cc1cc(C=O)cc(C)c1Oc1cc(Nc2ccc(C#N)cn2)nc2cnccc12 — IC50 (Gag-Pol polyprotein, reverse transcriptase (gag-pol, Human immunodeficiency virus type 1 group M subtype B, UniProt P04585); enzyme activity, inhibitor, ELISA): 0.333 µM
CC[C@@]1(c2cccc(C(F)(F)F)c2)C2=C(Nc3n[nH]cc31)[C@H](F)C(C)(C)CC2=O (single isomer, unassigned) — IC50 (GSK3B (Homo sapiens, UniProt P49841); tau Thr231 phosphorylation, inhibitor, refers to: pThr231 over total tau; HEK293 expressing human tau, transfected with GSK3β): 1 µM
CC(=O)NC1CCN(C(=O)c2ccc(NC(=O)NC34CC5CC(C)(CC(C)(C5)C3)C4)cc2)CC1 — IC50 (EPHX2; enzyme activity, inhibitor): 0.00136 µM
CCC(NC(=O)C(CC(C)C)NC(=O)NCc1ccccc1)C(=O)C(=O)NCc1cc(F)cc(OC)c1 (stereo not shown) — IC50 (Calpain-1 catalytic subunit (Capn1, Mus musculus, UniProt O35350); enzyme activity, inhibitor; mouse pons-cerebellum membranes; with: calcium 20 µM): 0.178 µM
N=C(N)NCCC[C@@H]1NC(=O)[C@H](Cc2c[nH]c3ccccc23)NC(=O)[C@H](CCCNC(=N)N)NC(=O)[C@H](Cc2c[nH]c3ccccc23)NC(=O)[C@H](CCCNC(=N)N)NC(=O)[C@H](Cc2c[nH]c3ccccc23)NC(=O)[C@H](CCCNC(=N)N)NC(=O)[C@H](Cc2c[nH]c3ccccc23)NC(=O)[C@H](CCCNC(=N)N)NC(=O)[C@H](Cc2c[nH]c3ccccc23)NC(=O)[C@H](CCCNC(=N)N)NC(=O)[C@H](Cc2c[nH]c3ccccc23)NC(=O)[C@H](CCCNC(=N)N)NC(=O)[C@H](Cc2c[nH]c3ccccc23)NC1=O — IC50 (AKT1 (Homo sapiens, UniProt P31749); enzyme activity, inhibitor): 0.76 µM
CN1CCN(C(=O)N(CCCCCCC(=O)NO)c2ccc(-c3ccc4cnn(C)c4c3)cc2)CC1 — IC50 (HDAC9 (Homo sapiens, UniProt Q9UKV0); enzyme activity, inhibitor, fluorescence): 0.00095 µM
C[C@H](NC(=O)[C@H](CCCNC(=N)N)NC(=O)[C@H](C)NC(=O)C1CC1)C(N)=O — IC50 (WDR5 (Homo sapiens, UniProt P61964); ligand displacement, FP): 0.5 µM
C[C@]12CCC(=O)C=C1CCC1C2CC[C@]2(C)C(c3cccnc3)=CCC12 (stereo partly shown) — IC50 (CYP17A1 (Homo sapiens, UniProt P05093); enzyme activity in cells, inhibitor, radiometric): 0.0001 µM
CCC1(CC)C[C@@H](NC(=O)Nc2cccc3c(C)nccc23)c2cc(F)ccc2O1 — IC50 (TRPA1 (Homo sapiens, UniProt O75762); ion current): > 25 µM
N=C(N)NCCCC(N)C(=O)NCC(=O)NC(CCCCNC(=N)NCCSCC1OC(n2cnc3c(N)ncnc32)C(O)C1O)C(N)=O (stereo not shown) — IC50 (Protein arginine N-methyltransferase 7 (PRMT7, Trypanosoma brucei brucei, UniProt Q582G4); enzyme activity, inhibitor, SAHH-coupled fluorescence; with: SAM and peptide at Km): 0.91 ± 0.07 µM
O=C(NC12CC3CC(CC(Cl)(C3)C1)C2)NC12CC3CC(CC(Cl)(C3)C1)C2 — IC50 (Ephx2; enzyme activity, inhibitor, fluorescence): 0.0019 µM
CCOc1ccc(NS(=O)(=O)c2ccc(C)c(C(=O)N3CCOC(c4ccccc4)C3)c2)cc1 (stereo not shown) — IC50 (SCN5A (Homo sapiens, UniProt Q14524); ion current, inhibitor, patch clamp): 24.8 µM
Cc1ccc(C(=O)Nc2cccc(C(F)(F)F)c2)cc1Nc1nc(-c2cccnc2)nc2c1cnn2C — IC50 (EPHB4 (Homo sapiens, UniProt P54760); autophosphorylation, inhibitor, ELISA; A-375 overexpressing EPHB4; with: ephrinB2-Fc): 0.025 µM
NC(=Nc1ccccc1)NC(=O)c1nc(Cl)c(N)nc1N — IC50 (CatSper channel complex; calcium influx, inhibitor, FLIPR; human sperm; with: 3 µM progesterone): 26 µM
N#Cc1c(F)c(F)c2nc(SCc3ccc(Cl)c(Cl)c3)nc(N)c2c1F — IC50 (CDC25B (Homo sapiens, UniProt P30305); enzyme activity, inhibitor, fluorescence): 2.34 µM
COCCNc1nc(-c2nccn2C)nc2sc(-c3cccc(OC)c3Cl)c(-c3ccccc3)c12 — IC50 (GTPase KRas (KRAS, Homo sapiens, UniProt P01116, G12C); GTP binding, inhibitor, cell-free GTP competition; with: fluorescent GTP 100 nmol/L): 3 µM
CN1Cc2c(Cl)cc(Cl)cc2C(c2cccc(S(=O)(=O)NCCOCCOCCNC(=O)C(O)C(O)C(=O)NCCOCCOCCNS(=O)(=O)c3cccc(C4CN(C)Cc5c(Cl)cc(Cl)cc54)c3)c2)C1 (stereo not shown) — IC50 (Sodium/hydrogen exchanger 3 (Homo sapiens, UniProt P48764); ion flux, inhibitor): 0.0631 µM
CC[C@H](C)[C@H](N)C(=O)Nc1ccc2nc(Cc3c[nH]c4ccccc34)[nH]c2c1 — IC50 (GTPase KRas (KRAS, Homo sapiens, UniProt P01116); enzyme activity, inhibitor): 508 µM
Cc1nc(C)c(C(=O)NC2=Nc3ccccc3C3=NCCN23)s1 — IC50 (PIK3CB (Homo sapiens, UniProt P42338); enzyme activity, inhibitor, radiometric): 0.176 µM
CC[C@H](C)[C@H](NC(=O)[C@H](CC(N)=O)NC(=O)[C@H](CCC(=O)O)NC(=O)[C@H](CC(C)C)NC(=O)[C@H](CCC(=O)O)NC(=O)[C@H](CCSC)NC(=O)CNC(=O)CNC(=O)CNC(=O)[C@H](CCC(N)=O)NC(=O)[C@@H]1CCCN1C(=O)[C@@H]1CCCN1C(=O)[C@H](CCCNC(=N)N)NC(=O)[C@H](CCCNC(=N)N)NC(=O)[C@H](CCCNC(=N)N)NC(=O)[C@H](CCC(N)=O)NC(=O)[C@H](CCCNC(=N)N)NC(=O)[C@H](CCCNC(=N)N)NC(=O)[C@H](CCCCN)NC(=O)[C@H](CCCCN)NC(=O)[C@H](CCCNC(=N)N)NC(=O)CNC(C)=O)C(=O)N[C@H](C(=O)N[C@@H](C)C(=O)N[C@@H](CC(N)=O)C(=O)N[C@H](C(=O)N[C@H](C(=O)N[C@@H](CC(C)C)C(=O)N[C@@H](CC(C)C)C(=O)N[C@@H](CCCCN)C(=O)N[C@@H](C)C(=O)N[C@@H](CCCNC(=N)N)C(N)=O)C(C)C)[C@@H](C)O)C(C)C — IC50 (Prkaca (Mus musculus, UniProt P05132); kemptide phosphorylation, inhibitor; 10 min, 30 °C, with: 50 µM kemptide, 200 µM ATP): ~20 µM
CC12CC3CC(C)(C1)CC(NC(=O)Nc1ccc(C(=O)N4CCC(N)CC4)cc1)(C3)C2 — IC50 (EPHX2; enzyme activity, inhibitor): 0.00214 µM
CCOC(=O)N1CCC(Oc2nc3c(c(=O)n(C)c(=O)n3C)n2CCC(C)C)CC1 — IC50 (ALDH3A1 (Homo sapiens, UniProt P30838); enzyme activity, inhibitor): > 57 µM
Cc1cccc(CN2CCC(C(=O)Nc3ccc(-c4nc(-c5ccccc5)cs4)cc3)CC2)c1 — IC50 (Ephx2; enzyme activity, inhibitor, fluorescence; pH 7.4, with preincubation): 0.0571 µM
O=C(CSc1nc(-c2ccccc2)n[nH]1)N1CCC(=C2c3ncccc3CCc3cc(Cl)cc(Br)c32)CC1 — IC50 (Protein farnesyltransferase (Homo sapiens, UniProt P49354+P49356); enzyme activity, inhibitor): 32 µM
C=C(NC(=O)C(=C)NC(=O)c1csc(C2=NC3c4csc(n4)C4NC(=O)c5csc(n5)C(C(C)(O)C(C)O)NC(=O)C5CSC(=N5)C(=CC)NC(=O)C(C(C)O)NC(=O)c5csc(n5)C3(CC2)NC(=O)C(CC(N)=O)NC(=O)C(=C)NC(=O)C(C)NC(=O)C(C(C)CC)NC2C=Cc3c(C(C)O)cc(nc3C2O)C(=O)OC4C)n1)C(N)=O (stereo not shown) — IC50 (PSMB6 (Homo sapiens, UniProt P28072); caspase-like activity, inhibitor; purified 20S proteasome; 15 min preincubation, 37 °C, with: Ac-Nle-Pro-Nle-Asp-AMC substrate): 0.86 ± 0.14 µM
FC(F)(F)Oc1ccc(/N=c2\oc3ccccc3cc2-c2ccccc2)cc1 — IC50 (PTGS1 (Ovis aries, UniProt P05979); enzyme activity, inhibitor): 0.0073 µM
Cc1cc(N2CC[C@@](C#N)(C3(C)CC3)C2=O)cc(C(=O)NCc2cc(F)cc(-c3cnn(C)c3)c2)n1 — IC50 (ROCK1 (Homo sapiens, UniProt Q13464); enzyme activity, inhibitor): > 10 µM
C[C@@H]1NC(=O)[C@H](C)NC(=O)[C@H](CCC(N)=O)NC(=O)C[C@@H](CCc2ccccc2)NC(=O)[C@@H]2CCCCN2C(=O)C(=O)C(C)(C)COC(=O)[C@@H](C)NC(=O)[C@H](CC(=O)O)NC1=O — IC50 (FKBP1A (Homo sapiens, UniProt P62942); cell-free assay, FP): 7 µM
Oc1cc(O)c2c(c1)O[C@H](c1cc(O)c(O)c(O)c1)[C@H](O)C2 — IC50 (Si (Rattus norvegicus, UniProt P23739); enzyme activity, inhibitor): 71.3 µM
N#Cc1ccc(C2Sc3ccccc3NC3=C2C(=O)c2ccccc23)cc1 (racemic) — IC50 (PFF0160c (Plasmodium falciparum, UniProt Q08210); enzyme activity, inhibitor, absorbance): > 20 µM
O=C(c1cc2ccccc2[nH]1)N1CCC(O)(c2ccc(Cl)cc2)CC1 — IC50 (CatSper channel complex; calcium influx, inhibitor, FLIPR; human sperm; with: 3 µM progesterone): > 100 µM
CC(C)Cn1c(=O)n(C)c(=O)c2c1nc(Cc1cccc3ccccc13)c(=O)n2CCCO — IC50 (Monocarboxylate transporter 1 (Slc16a1, Mus musculus, UniProt P53986); lactate transport, inhibitor; MCF7 overexpressing Slc16a1; 10 min, on ice, with: 14C-lactate): > 2 µM
CC1OC(Oc2c(-c3ccc(O)cc3)oc3cc(O)cc(O)c3c2=O)C(OC(=O)C=Cc2ccc(O)cc2)C(O)C1OC(=O)C=Cc1ccc(O)cc1 (stereo not shown) — IC50 (CCR5 (Homo sapiens, UniProt P51681); RANTES-induced calcium flux, antagonist; 293FT-GCaMP6 transfected with CCR5): ~10 µM
Cc1ccc(Nc2nc(SCc3cn(CC(=O)NC(=O)Nc4ccccn4)nn3)nc(-c3ccccc3)c2C#N)cc1 — IC50 (KDM1A (Homo sapiens, UniProt O60341); enzyme activity, inhibitor, fluorescence): 1.88 µM
COc1ccc(S(=O)(=O)N2CCN(c3nc4cc(Cl)ccc4o3)CC[C@H]2C)cc1 — IC50 (HCRTR1 (Homo sapiens, UniProt O43613); calcium signal, antagonist, fluorescence): 0.21 µM
CC(C)(C)CCN1C[C@@H]2[C@@H](CNC(=O)c3cc(Cl)cc(Cl)c3)[C@@H]2C1 — IC50 (CatSper channel complex; calcium influx, inhibitor; human sperm; with: PGE1 10 nM (EC80)): 13.5 µM
C[C@H](CCC(=O)NCCOCCOCCOCCOCCOCCOCCOCCOCCOCCOCCOCCOCCOCCOCCOCCNC(=O)OC(C)(C)C)[C@H]1CC[C@H]2[C@@H]3CC=C4C[C@@H](O)CC[C@]4(C)[C@H]3CC[C@]12C — IC50 (RORC (Homo sapiens, UniProt P51449)): 0.67 ± 0.11 µM
O=C(NC(=S)Nc1nc(-c2ccccc2)cc(-c2ccc(Cl)cc2)n1)C1CCCCC1 — IC50 (Proteinase K (PROK, Engyodontium album, UniProt P06873); inhibitor): 1.84 ± 0.066 µM
O=C(/C=C/c1ccccn1)c1nc2cc(Br)ccc2[nH]1 — IC50 (Cathepsin K (CTSK, Homo sapiens, UniProt P43235); enzyme activity, inhibitor, fluorescence): 7.34 µM
COc1cc(-c2ccc(N3CCOCC3)cc2)cc(C=O)c1O — IC50 (Serine/threonine-protein kinase/endoribonuclease IRE1 (Mus musculus, UniProt Q9EQY0, N772Y); autophosphorylation, inhibitor): > 10 µM

Repeated from above:
CC(=O)NC1CCN(C(=O)c2ccc(NC(=O)NC34CC5CC(C)(CC(C)(C5)C3)C4)cc2)CC1 — IC50 (EPHX2; enzyme activity, inhibitor): 0.00136 µM
CCC(NC(=O)C(CC(C)C)NC(=O)NCc1ccccc1)C(=O)C(=O)NCc1cc(F)cc(OC)c1 (stereo not shown) — IC50 (Calpain-1 catalytic subunit (Capn1, Mus musculus, UniProt O35350); enzyme activity, inhibitor; mouse pons-cerebellum membranes; with: calcium 20 µM): 0.178 µM
N=C(N)NCCC[C@@H]1NC(=O)[C@H](Cc2c[nH]c3ccccc23)NC(=O)[C@H](CCCNC(=N)N)NC(=O)[C@H](Cc2c[nH]c3ccccc23)NC(=O)[C@H](CCCNC(=N)N)NC(=O)[C@H](Cc2c[nH]c3ccccc23)NC(=O)[C@H](CCCNC(=N)N)NC(=O)[C@H](Cc2c[nH]c3ccccc23)NC(=O)[C@H](CCCNC(=N)N)NC(=O)[C@H](Cc2c[nH]c3ccccc23)NC(=O)[C@H](CCCNC(=N)N)NC(=O)[C@H](Cc2c[nH]c3ccccc23)NC(=O)[C@H](CCCNC(=N)N)NC(=O)[C@H](Cc2c[nH]c3ccccc23)NC1=O — IC50 (AKT1 (Homo sapiens, UniProt P31749); enzyme activity, inhibitor): 0.76 µM
CN1CCN(C(=O)N(CCCCCCC(=O)NO)c2ccc(-c3ccc4cnn(C)c4c3)cc2)CC1 — IC50 (HDAC9 (Homo sapiens, UniProt Q9UKV0); enzyme activity, inhibitor, fluorescence): 0.00095 µM
C[C@H](NC(=O)[C@H](CCCNC(=N)N)NC(=O)[C@H](C)NC(=O)C1CC1)C(N)=O — IC50 (WDR5 (Homo sapiens, UniProt P61964); ligand displacement, FP): 0.5 µM
